Measurements pooled from the literature.
Every numbered part comes from another study and shows a few of its results, in no order.

Block 1
Target: Sal-like protein 4, full length isoform B (SALL4, Homo sapiens, UniProt Q9UJQ4-2, residues 1-616)
Method: universal PBM
Form: double-stranded DNA, one strand shown
Sample: in vitro
Tested at: not given
Setting: 8-mer, flanks averaged, mean of replicates
Reading: higher = stronger binding
Residues (chain): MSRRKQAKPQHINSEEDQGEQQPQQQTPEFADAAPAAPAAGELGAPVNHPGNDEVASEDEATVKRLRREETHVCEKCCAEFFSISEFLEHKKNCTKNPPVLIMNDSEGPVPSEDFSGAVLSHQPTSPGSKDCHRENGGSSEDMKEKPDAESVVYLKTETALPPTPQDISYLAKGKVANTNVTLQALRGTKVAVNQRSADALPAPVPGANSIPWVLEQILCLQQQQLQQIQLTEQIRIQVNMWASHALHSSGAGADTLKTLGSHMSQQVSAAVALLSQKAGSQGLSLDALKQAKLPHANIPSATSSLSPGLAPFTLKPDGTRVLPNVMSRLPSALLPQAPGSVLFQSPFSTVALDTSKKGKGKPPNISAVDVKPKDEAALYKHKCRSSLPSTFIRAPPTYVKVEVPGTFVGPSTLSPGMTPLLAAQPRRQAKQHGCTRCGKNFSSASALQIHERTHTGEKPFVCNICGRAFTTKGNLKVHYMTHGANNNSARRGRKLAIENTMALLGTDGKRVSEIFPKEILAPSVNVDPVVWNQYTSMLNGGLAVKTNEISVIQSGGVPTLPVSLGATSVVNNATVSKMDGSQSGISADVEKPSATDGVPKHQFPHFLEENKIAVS
Sequence | E-score
GTTAGGCA | 0.0519
ACTTGATC | 0.128
ACTACTAT | 0.251
CACAAAGG | -0.0259

Block 2
Target: Centromere-binding protein 1, full length, N-terminal tag (CBF1, Saccharomyces cerevisiae, UniProt P17106, residues 1-351)
Sequence of UniProt P17106 (whole entry, looked up): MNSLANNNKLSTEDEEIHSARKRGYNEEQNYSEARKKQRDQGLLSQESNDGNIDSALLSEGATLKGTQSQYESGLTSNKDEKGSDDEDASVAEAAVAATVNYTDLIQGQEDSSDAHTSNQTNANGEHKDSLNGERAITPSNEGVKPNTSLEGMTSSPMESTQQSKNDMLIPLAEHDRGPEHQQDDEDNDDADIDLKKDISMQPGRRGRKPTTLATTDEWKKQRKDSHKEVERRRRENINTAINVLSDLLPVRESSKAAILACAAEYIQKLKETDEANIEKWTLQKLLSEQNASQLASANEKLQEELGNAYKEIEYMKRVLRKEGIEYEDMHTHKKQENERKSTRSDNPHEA
Method: protein-binding microarray
Form: double-stranded DNA, one strand shown
Sample: in vitro
Tested at: 0.8 µM
Setting: whole 60-bp probe, no competitor
Reading: higher = stronger binding
Sequence | fluorescence intensity
GAATGTATTGTTGGTCACACATATATAGATGCCTAGGTCTTGATTCGCTTGACGCTGCTG | 692 a.u.
GAAATCACTTATCACGTTGTGGTGACAACGGCGTAGGTCTTGATTCGCTTGACGCTGCTG | 2250 a.u.
CTATCTTCCATATCCCACGTAATGGCAATTGGCTTCGTCTTGATTCGCTTGACGCTGCTG | 551 a.u.

Block 3
Target: Interferon regulatory factor 7, full length, phosphomimetic (IRF7, Homo sapiens, UniProt Q92985, residues 1-503, S471D/S472D/S475D/S476D/S477D/S483D/S484D/S487D)
Sequence of UniProt Q92985 (whole entry, unmodified, looked up): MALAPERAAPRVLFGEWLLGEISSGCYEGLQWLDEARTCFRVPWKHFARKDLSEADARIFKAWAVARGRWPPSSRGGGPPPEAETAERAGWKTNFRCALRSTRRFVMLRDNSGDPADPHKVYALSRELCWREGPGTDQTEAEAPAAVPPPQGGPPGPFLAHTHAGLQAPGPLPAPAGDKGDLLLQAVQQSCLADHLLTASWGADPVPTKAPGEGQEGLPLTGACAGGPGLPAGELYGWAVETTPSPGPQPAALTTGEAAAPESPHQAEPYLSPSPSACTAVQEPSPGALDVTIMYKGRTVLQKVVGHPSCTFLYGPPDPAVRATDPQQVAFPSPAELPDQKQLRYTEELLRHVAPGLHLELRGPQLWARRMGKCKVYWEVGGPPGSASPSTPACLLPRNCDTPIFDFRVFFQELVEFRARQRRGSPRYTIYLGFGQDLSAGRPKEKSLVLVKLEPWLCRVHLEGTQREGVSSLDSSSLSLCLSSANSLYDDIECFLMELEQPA
Method: protein-binding microarray
Form: double-stranded DNA, one strand shown
Sample: in vitro
Tested at: 2200 nM top
Setting: 60-bp whole probe
Added: salmon DNA 0.4 mg/ml
Reference: random background probes
Reading: higher = stronger binding
Sequence | fitted relative affinity
GCCTAGCACTCAAGCATGGATCTGGGACTGTGCTAGGTCTTGATTCGCTTGACGCTGCTG | -0.215 z-score
GCCTAGCACTTAGGACTTGGGTATCGGTTAGTGCTAGTCTTGATTCGCTTGACGCTGCTG | -0.0483 z-score
GCCTAGCACGACGGTATCGGTCTTGGGACGTGCTAGGTCTTGATTCGCTTGACGCTGCTG | -0.0201 z-score

Further values, each from its own experiment
Molecule | target | assay | test system | conditions | how to read | measurement | value
PhoQ, residues 284 288 289 292 302 303 TAVSDG | PhoP, residues 12 14 15 18 19 NNFVT (Escherichia coli, UniProt P23836) | Sort-seq, item: YFP reporter | E. coli | PhoQ-PhoP variant library, added: 10 µM Mg2+ | reference: high Mg2+ state, higher = stronger signaling | fold induction | 3.74

For quick reference, copied from above (block 2):
Sequence | fluorescence intensity
GAAATCACTTATCACGTTGTGGTGACAACGGCGTAGGTCTTGATTCGCTTGACGCTGCTG | 2250 a.u.
